Assay results collected from several papers.
Lines come from different studies, so protocols differ. “And” joins repeats or separate records; there may be more than shown. ± marks the error that the study gave.

SMILES	test	test system	setting	scale	quantity	value
Cc1c(CN(C)C(=O)/C=C/c2cnc3c(c2)CC(N)C(=O)N3)oc2ccccc12 (stereo not drawn)	–	C57BL/6 mice female	intraperitoneal, 50 mg/kg daily, 5 days	–	tolerated dose	50 mg/kg
CCCCCCCCCCCCC(=O)O.O=C1CCCC2C3CCCN4CCCC(CN12)C34 (stereo not drawn)	electrical conductivity	water	308.15 K	–	standard Gibbs energy of aggregation	-8.61 kcal/mol
C/C=C/C=C/C/C=C/CCCCCCCc1cccc(O)c1O	–	female Kunming mice tumour-bearing, lungs	intravenous, 10 mg/kg, 1 h	–	tissue concentration	12400 ± 1850 ng/g
COc1cc(-c2cncc(-c3ccc(N4CCN([11CH3])CC4)cc3)c2C)cc(OC)c1OC	dynamic PET	Sprague-Dawley rats male, whole brain	intravenous, 16 to 23 MBq	–	peak SUV	1.8 and ~2
CCCCCCCCCCCCCCCCCC(=O)N[C@@H](CCCCN)C(=O)N[C@@H](CCCCN)C(=O)N(CCCCN)CC(=O)N[C@@H](CCCCN)C(=O)N[C@@H](CCCCN)C(N)=O	–	Galleria mellonella larvae	50 mg/kg, 4 d	–	survival	100%
CCCO[C@H]1[C@H](O)[C@@H](N)[C@@H](O[C@H]2[C@H](O[C@@H]3O[C@H](CO)[C@@H](O[C@H]4O[C@@H](CN)[C@@H](O)[C@H](O)[C@H]4N)[C@H]3O)[C@@H](O)[C@H](N)C[C@@H]2N)O[C@@H]1CO	–	guinea pig	chronic ototoxicity study	–	tolerability	not toxic
CN(C)C(CNC(=O)Nc1cc(C(F)(F)F)ccc1N1CCOCC1)c1ccncc1 (stereo not drawn)	–	mouse, serum	intraperitoneal, 360 mg/kg single dose	–	serum creatinine	1 mg/dL
CC[C@H](C)[C@H](NC(=O)[C@H](CCCN)NC(=O)[C@H](CC(N)=O)NC(=O)[C@H](Cc1c[nH]c2ccccc12)NC(=O)[C@H](Cc1ccccc1)NC(=O)[C@H](CCCN)NC(=O)[C@H](CCCCNC(=N)N)NC(=O)[C@H](CC(C)C)NC(=O)[C@H](Cc1c[nH]c2ccccc12)NC(=O)[C@H](CCCN)NC(=O)[C@H](CCCCNC(=N)N)NC(=O)[C@H](CC(C)C)NC(=O)CNC(C)=O)C(=O)N[C@@H](CCCN)C(=O)N[C@@H](CCCCNC(=N)N)C(N)=O	–	Kunming mice	intravenous, 25 mg/kg, 5 days	–	survival	0%
CC[C@@H]1C[C@]1(NC(=O)[C@@H]1C[C@@]2(CN1C(=O)[C@@H](NC(=O)[C@@H](NC(=O)[C@@H]1CCCCN1C(C)C)C1CCCCC1)C(C)(C)C)C(C)(C)C21CCC1)C(=O)NS(=O)(=O)N1CCCC1	–	human	oral, 10 mg, added: ritonavir	baseline: without ritonavir	fold increase in exposure	~50 fold
O=C(c1ccc(F)cc1)C1CCN(C2Cc3c(cccc3OCC[18F])CC2O)CC1 (single isomer, unassigned; (-))	–	cynomolgus monkey, arterial plasma	time not given, solvent extraction	–	extraction recovery	76 to 87%
O=c1cc(-c2ccccc2)oc2c(Br)c(O)c(O)c(O)c12	–	C57BL/6 mouse, plasma	oral, 250 mg/kg	–	time above EC99.9	12 h
CC(C)C[C@@H](N)C(=O)NCC(=O)N[C@H](C)C(=O)N[C@H](CO)C(=O)N[C@H](Cc1c[nH]c2ccccc12)C(=O)N[C@H](Cc1c[nH]cn1)C(=O)N[C@H](CCCNC(=N)N)C(=O)N1CCC[C@@H]1C(=O)N[C@H](CC(=O)O)C(=O)N[C@H](CCCCN)C(=O)N[C@H](CS)C(=O)N[C@H](CS)C(=O)N[C@H](CC(C)C)C(=O)NCC(=O)N[C@H](Cc1ccc(O)cc1)C(=O)N[C@H](CCC(N)=O)C(=O)N[C@H](CCCCN)C(=O)N[C@H](CCCNC(=N)N)C(=O)N1CCC[C@@H]1C(=O)N[C@H](CC(C)C)C(=O)N1CCC[C@@H]1C(N)=O	LC-MS/MS	rat plasma	5000 ng/mL, -80 to 25 °C, 3 freeze-thaw cycles	–	measured concentration	5530 ± 433 ng/mL
COC(=O)C[C@](O)(CCCC(C)(C)OC(C)=O)C(=O)O[C@@H]1C(OC)=C[C@]23CCCN2CCc2cc4c(cc2[C@H]13)OCO4	–	CD1 mouse, kidney	subcutaneous, 1 mg/kg, 8 h, below quantification limit 1.00 ng/mL	–	tissue concentration	not detected
CCNc1cc2[o+]c3cc(NCC)c(C)cc3c(-c3ccccc3C(=O)OCCOCC[18F])c2cc1C	–	rat	30 min	baseline: heart over blood	tissue uptake ratio	18.9
CC[C@H](C)[C@H](N)C(=O)N[C@@H](CC(N)=O)C(=O)N[C@@H](Cc1c[nH]cn1)C(=O)N[C@H](C(=O)NCC(=O)NCC(=O)N[C@H](C(=O)NCC(=O)NCC(=O)N[C@@H](C)C(=O)N[C@H](C(=O)N[C@@H](CCSC)C(=O)N[C@@H](C)C(=O)N1CCC[C@H]1C(=O)N[C@H](C(=O)N[C@@H](C)C(=O)N[C@H](C(=O)N[C@H](C(=O)N[C@@H](CCCNC(=N)N)C(=O)N[C@@H](CCC(N)=O)C(=O)N[C@@H](CC(C)C)C(=O)N[C@H](C(=O)NCC(=O)NCC(=O)N[C@@H](CS)C(=O)NCC(=O)NCC(=O)NCC(=O)N[C@@H](CCCCN)C(=O)N[C@@H](CCC(=O)O)C(=O)N[C@H](C(=O)N[C@@H](C)C(=O)N[C@@H](C)C(=O)N[C@@H](C)C(=O)N[C@@H](CCCCN)C(=O)N[C@@H](Cc1ccccc1)C(=O)N[C@@H](CCC(=O)O)C(=O)N[C@@H](CCCNC(=N)N)C(=O)N[C@@H](CCC(N)=O)C(=O)N[C@@H](Cc1c[nH]cn1)C(=O)N[C@@H](CCSC)C(=O)N[C@@H](CC(=O)O)C(=O)N[C@@H](CO)C(=O)O)[C@@H](C)O)C(C)C)[C@@H](C)O)C(C)C)C(C)C)[C@@H](C)CC)[C@@H](C)O)C(C)C	transmission electron microscopy	phosphate buffer	25 µM, pH 7.4	–	particle size	70 to 150 nm
COc1cc(NC(=O)C(=O)c2c(C)n(Cc3ccc(Cl)cc3)c3ccc(C)cc23)ccn1	–	cynomolgus monkey, male, plasma	oral, 10 mg/kg	–	AUC(0-inf)	2630 ng·h/mL
COc1cc2ncnc(Oc3cccc(N[11C](=O)Nc4cc(C(C)(C)C(F)(F)F)on4)c3)c2cc1OC	radio-HPLC	female Balb/c nude mice, plasma	intravenous, 5 min	baseline: radioactivity	intact compound in plasma	92.2%
COc1ccnc(-c2cc(OC)ccn2)c1.O.[C-]#[O+].[C-]#[O+].[C-]#[O+].[Re+]	RP-HPLC C18 column, refers to: MeCN adduct	MeCN:water 40:60, 0.1% TFA	isocratic elution	–	capacity factor	7.2
[3H]c1sc(C)nc1C=C(C)C1CC2C(CCCC(C)C(O)C(C)C(=O)C(C)(C)C(O)CC(=O)O1)N2CCO (stereo not drawn)	LC-MS/MS	tumour-bearing CD2F1 mice, plasma	intravenous, 2.2 nmol/kg, 24 h	–	plasma concentration	13.5 ± 2 ng/mL
Cc1ccc(OCC(=O)N(Cc2cccs2)c2ccn[nH]2)cc1	–	Crl:CD(SD) rat, bred female	oral, 300 mg/kg/day, mean per litter, developmental toxicity	–	fetal weight	5.6 g
CC[C@H](C)C(=O)N1CCC(NC(=O)Nc2ccc(OC(F)(F)F)c(F)c2)CC1	–	human, fasted, plasma	oral, 8 mg, single dose, geometric least-squares mean	–	AUC(0-t)	3100 ng·h/mL
CC(C)[C@H](NC(=O)CNC(=O)[C@H](CCC(N)=O)NC(=O)[C@H](C)N)C(=O)O	–	healthy human	intravenous, 1 mg/kg single dose	baseline: subjects	definitely drug-related adverse events	0%
CSCC[C@@H]1NC(=O)[C@@H]2CSSC[C@H](NC(=O)[C@H](CO)NC(=O)[C@H](C)N)C(=O)N[C@@H](CCCNC(=N)N)C(=O)N[C@@H]([C@@H](C)O)C(=O)N3CCC[C@H]3C(=O)N[C@@H](CCCCN)C(=O)N[C@@H](CC(=O)O)C(=O)N[C@H]3CSSC[C@H](NC(=O)[C@H](CCCCN)NC(=O)[C@H](CCCNC(=N)N)NC(=O)[C@H](CC(N)=O)NC1=O)C(=O)N[C@@H](CCCCN)C(=O)N[C@H]1CSSC[C@H](NC(=O)[C@@H]4CCCN4C(=O)[C@H](CC(=O)O)NC(=O)[C@H](C)NC3=O)C(=O)N[C@@H](C)C(=O)N[C@@H](CCCCN)C(=O)N[C@@H](CCC(=O)O)C(=O)N[C@@H]([C@@H](C)O)C(=O)NCC(=O)N[C@@H](CSSC[C@@H](C(N)=O)NC(=O)[C@H](CCCNC(=N)N)NC(=O)[C@H](CC(N)=O)NC1=O)C(=O)N1CCC[C@H]1C(=O)N[C@@H](Cc1ccc(O)cc1)C(=O)NCC(=O)N[C@@H](CCCCN)C(=O)N2	–	DA rat, pristane-induced arthritis, serum	subcutaneous, 0.1 mg/kg once weekly, end of 21-day trial	–	indirect bilirubin	0 mg/dL
COc1cc2c3c(c4ccc(O)c(OC)c4c2cc1OC)C(O)C1CCCN1C3 (stereo not drawn)	–	swine cells	24 (unit not given)	–	CC50	59.9 ± 2.79 µM
O=C(O)[c-]1cccc1.O=C(Oc1ccc(-n2cccc2)cc1)[c-]1cccc1.[Fe+2]	cyclic voltammetry	acetonitrile	–	baseline: Ag/AgCl	Epa	1030 mV
[11CH3]n1c(=O)n(CCCO)c(=O)c2c1nc(Oc1cccc(OC(F)(F)F)c1)n2Cc1ccc(Cl)cc1	ex vivo biodistribution	Sprague Dawley rat, thymus	30 min post injection	–	tracer uptake	0.63 ± 0.06 %ID/g
CC(C)[C@H](NC(=O)CNC(=O)[C@H](CCC(N)=O)NC(=O)[C@H](C)N)C(=O)O	–	healthy male volunteers	intravenous, 90 mg/kg/h, 2 h, added: LPS 2 ng/kg	–	subjects with Definitely related AE	0%
CC1N=C(c2ccccc2F)c2cc(Br)ccc2-n2cnc(C(=O)OC3OC(CO)C(O)C(O)C3O)c21 (stereo not drawn)	LC-MS/MS	Swiss Webster mouse, female, urine	intravenous, 250 µg parent drug, 24 to 48 h	–	cumulative excretion	2 ± 0.7%
CC(C)C[C@H](NC(=O)[C@H](CCCCN)NC(=O)[C@H](CCC(=O)O)NC(=O)[C@H](C)NC(=O)[C@@H](NC(=O)[C@H](CCCCN)NC(=O)[C@H](CC(=O)O)NC(=O)[C@H](Cc1ccc(O)cc1)NC(=O)[C@H](Cc1ccccc1)NC(=O)[C@H](C)NC(=O)[C@H](CCCCN)NC(=O)[C@H](CC(C)C)NC(=O)[C@H](Cc1c[nH]c2ccccc12)NC(=O)[C@@H](N)CC(=O)O)C(C)C)C(=O)N[C@@H](CCCCN)C(=O)N[C@@H](CCC(=O)O)C(=O)N[C@@H](C)C(=O)N[C@@H](Cc1ccccc1)C(=O)N1CCC[C@H]1C(=O)N[C@@H](CC(=O)O)C(=O)N[C@@H](Cc1c[nH]c2ccccc12)C(=O)N[C@@H](C)C(=O)N[C@@H](CCCCN)C(=O)N[C@@H](C)C(=O)N[C@@H](C)C(=O)N[C@@H](Cc1ccc(O)cc1)C(=O)N[C@@H](CC(=O)O)C(=O)N[C@@H](CCCCN)C(=O)N[C@@H](C)C(=O)N[C@@H](C)C(=O)N[C@@H](CCC(=O)O)C(=O)N[C@@H](CCCCN)C(=O)N[C@@H](C)C(=O)N[C@@H](CCCCN)C(=O)N[C@@H](CCC(=O)O)C(=O)N[C@@H](C)C(=O)N[C@@H](C)C(=O)O	–	cynomolgus monkey male, plasma	intravenous infusion, 8 mg/kg, day 1, 30 min infusion	–	AUC(0-inf)	415000 ng·h/mL
CC(C)C[C@H](NC(=O)[C@H](Cc1ccc(O)cc1)NC(=O)[C@H](Cc1c[nH]cn1)NC(=O)[C@H](CCCCN)NC(=O)[C@H](CC(C)C)NC(=O)[C@H](C)NC(=O)[C@H](CC(C)C)NC(=O)[C@H](CCCCN)NC(=O)CNC(=O)[C@@H](NC(=O)[C@@H](NC(=O)[C@H](CCCCN)NC(=O)[C@@H](NC(=O)[C@H](CCC(=O)O)NC(=O)[C@H](C)NC(=O)[C@H](CCCCN)NC(=O)[C@H](CCCCN)NC(=O)[C@H](CC(C)C)NC(=O)[C@H](CC(C)C)NC(=O)[C@@H](NC(=O)[C@H](CCCNC(=N)N)NC(=O)[C@H](Cc1c[nH]c2ccccc12)NC(=O)CN)[C@@H](C)O)C(C)C)[C@@H](C)O)C(C)C)C(N)=O	–	zebrafish embryos	1 h, 4, 28, 52 hpf	–	acute toxic concentration	25 µg/mL

Excerpt of the above:
SMILES	test	test system	setting	scale	quantity	value
CCCCCCCCCCCCCCCCCC(=O)N[C@@H](CCCCN)C(=O)N[C@@H](CCCCN)C(=O)N(CCCCN)CC(=O)N[C@@H](CCCCN)C(=O)N[C@@H](CCCCN)C(N)=O	–	Galleria mellonella larvae	50 mg/kg, 4 d	–	survival	100%
CCCO[C@H]1[C@H](O)[C@@H](N)[C@@H](O[C@H]2[C@H](O[C@@H]3O[C@H](CO)[C@@H](O[C@H]4O[C@@H](CN)[C@@H](O)[C@H](O)[C@H]4N)[C@H]3O)[C@@H](O)[C@H](N)C[C@@H]2N)O[C@@H]1CO	–	guinea pig	chronic ototoxicity study	–	tolerability	not toxic
CN(C)C(CNC(=O)Nc1cc(C(F)(F)F)ccc1N1CCOCC1)c1ccncc1 (stereo not drawn)	–	mouse, serum	intraperitoneal, 360 mg/kg single dose	–	serum creatinine	1 mg/dL
CC[C@H](C)[C@H](NC(=O)[C@H](CCCN)NC(=O)[C@H](CC(N)=O)NC(=O)[C@H](Cc1c[nH]c2ccccc12)NC(=O)[C@H](Cc1ccccc1)NC(=O)[C@H](CCCN)NC(=O)[C@H](CCCCNC(=N)N)NC(=O)[C@H](CC(C)C)NC(=O)[C@H](Cc1c[nH]c2ccccc12)NC(=O)[C@H](CCCN)NC(=O)[C@H](CCCCNC(=N)N)NC(=O)[C@H](CC(C)C)NC(=O)CNC(C)=O)C(=O)N[C@@H](CCCN)C(=O)N[C@@H](CCCCNC(=N)N)C(N)=O	–	Kunming mice	intravenous, 25 mg/kg, 5 days	–	survival	0%
CC[C@@H]1C[C@]1(NC(=O)[C@@H]1C[C@@]2(CN1C(=O)[C@@H](NC(=O)[C@@H](NC(=O)[C@@H]1CCCCN1C(C)C)C1CCCCC1)C(C)(C)C)C(C)(C)C21CCC1)C(=O)NS(=O)(=O)N1CCCC1	–	human	oral, 10 mg, added: ritonavir	baseline: without ritonavir	fold increase in exposure	~50 fold
